Results pooled from the literature.
A part holds a random share of what one study measured. Substitutions count along the parent as printed.

Block 1 — method: RNA Bind-n-Seq; molecule type: RNA; medium: in vitro; concentration: 200 nM; setting: whole 134-nt RNA, ends assumed; added: 150 mM KCl; baseline: input library; reading: higher = stronger binding
Target: Ras GTPase-activating protein-binding protein 1, full length (G3BP1, Homo sapiens, UniProt Q13283)
UniProt Q13283, sequence (whole entry, looked up): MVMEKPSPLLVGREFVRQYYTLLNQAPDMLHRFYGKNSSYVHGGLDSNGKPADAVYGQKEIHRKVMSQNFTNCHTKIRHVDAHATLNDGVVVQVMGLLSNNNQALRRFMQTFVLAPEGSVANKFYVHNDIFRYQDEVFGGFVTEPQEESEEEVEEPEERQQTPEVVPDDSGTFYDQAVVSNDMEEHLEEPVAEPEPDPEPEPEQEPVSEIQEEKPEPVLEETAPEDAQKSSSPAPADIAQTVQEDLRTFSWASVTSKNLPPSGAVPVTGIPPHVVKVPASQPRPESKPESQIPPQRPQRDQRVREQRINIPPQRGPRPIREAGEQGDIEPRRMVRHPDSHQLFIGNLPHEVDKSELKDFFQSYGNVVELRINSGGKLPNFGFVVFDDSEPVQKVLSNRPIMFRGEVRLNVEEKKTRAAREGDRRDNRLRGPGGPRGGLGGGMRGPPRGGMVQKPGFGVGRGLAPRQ
Strand	log2 enrichment
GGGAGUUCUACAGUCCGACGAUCCAAGUCCUGUGCUACACAUCGUAUGUACCGAAUCGGAAAAAGGUUUGGAAAAAGGAAAGUAUUAUGUUACGCCGUUCGGAUCUGCACUUCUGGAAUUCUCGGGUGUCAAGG	-1.28
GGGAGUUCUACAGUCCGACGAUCCUCAAGUCCUGUGCUACACAUCGUAUGUACCGAAUCGGGCCGGGCCGGGGCCGGAAAGUAUUAUGUUACGCCGUUCGGAUCUGCACUUCCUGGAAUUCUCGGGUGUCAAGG	-0.303
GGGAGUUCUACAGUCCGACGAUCGUCCUGUGCUACACAUCGUAUGUACCGAAUCGGGUGGGAAAAAAAGGGAAAAAAAGGGAAAGUAUUAUGUUACGCCGUUCGGAUCUGCACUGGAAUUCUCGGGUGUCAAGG	-0.192
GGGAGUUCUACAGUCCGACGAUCUGUGCUACACAUCGUAUGUACCGAAUCGGGGUUUUUUUGGGUUUUUUUGGGUUUUUUUGGGGAAAGUAUUAUGUUACGCCGUUCGGAUCUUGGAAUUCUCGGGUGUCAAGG	-0.836
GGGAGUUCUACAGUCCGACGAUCCACAGACAACACGCACCCACACAGGCACAGAGGGAAGGGGUUGGGAUGGGGACAGGGUGCACAGCAGGGCGGGGUAGGACCCCAGCCCCUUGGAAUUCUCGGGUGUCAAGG	1.73
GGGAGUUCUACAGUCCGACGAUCUAACUUUAGAGGAGGAUCUGAUGCAUAUGGCAGUGGACGUGGAUUUGGGGAUGGCUAUAAUGGGUAUGGAGGAGGACCUGGAGGUGGCAAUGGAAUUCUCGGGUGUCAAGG	0.438
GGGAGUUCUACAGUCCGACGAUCCUCAAGUCCUGUGCUACACAUCGUAUGUACCGAAUCGGAGGUUUUUUUGGUGGAAAGUAUUAUGUUACGCCGUUCGGAUCUGCACUUCCAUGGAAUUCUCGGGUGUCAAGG	-0.493
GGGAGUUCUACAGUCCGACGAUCAAGUCCUGUGCUACACAUCGUAUGUACCGAAUCGGAAAAAGGAAAAAGGUUUUUGGAAAGUAUUAUGUUACGCCGUUCGGAUCUGCACUUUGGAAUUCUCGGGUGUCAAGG	-1.6
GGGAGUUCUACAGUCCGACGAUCUGGCCCUGGUGGCAUGCGGGGAGGAAGAGGUGGCCUCUUGGAUCGUGGUGGUCCCGGUGGAAUGUUCAGAGGUGGCCGUGGUGGAGACAGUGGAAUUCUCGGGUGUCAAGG	0.305

Block 2 — target: CCNB3, cyclin fold, Cln2 fusion (human); method: yeast growth competition, sequencing; medium: yeast; setting: weak parent motif; baseline: not given; reading: higher = stronger binding
Parent: RBL1 docking peptide (human); GSAKRRLFGEDPP
Change	normalised enrichment score
GSAKRRLFGEDPT [P13T]	0.721
GSAKRRLFGEDPI [P13I]	0.762
GSAKRRLFGEEPP [D11E]	0.478
GSAKRRLIGEDPP [F8I]	0.139
TSAKRRLFGEDPP [G1T]	1.06
GSAKRRLFGLDPP [E10L]	0.407
GSAKRRLWGEDPP [F8W]	-0.261
GSAKHRLFGEDPP [R5H]	0.306
GSAKRRLFGEDMP [P12M]	0.387
GSAKRRLAGEDPP [F8A]	0.0813
GSANRRLFGEDPP [K4N]	0.269
GSAKRRLFGQDPP [E10Q]	0.795
GSAKRKLFGEDPP [R6K]	1.11
GSAKRELFGEDPP [R6E]	0.333
GSAKRFLFGEDPP [R6F]	0.823
GSAKRRLFGEDPA [P13A]	0.787
GHAKRRLFGEDPP [S2H]	0.658
GSAKDRLFGEDPP [R5D]	0.12
GSAKARLFGEDPP [R5A]	0.0866

Block 3 — method: RNA Bind-n-Seq; molecule type: RNA; medium: in vitro; concentration: 365 nM; baseline: no-protein control; reading: higher = stronger binding
Target: RNA binding protein fox-1 homolog 2, RRM domain, GST-SBP tag (RBFOX2, Homo sapiens, UniProt O43251-10, residues 100-194)
Setting: natural RNA segment, single round, ends assumed
Residues (chain): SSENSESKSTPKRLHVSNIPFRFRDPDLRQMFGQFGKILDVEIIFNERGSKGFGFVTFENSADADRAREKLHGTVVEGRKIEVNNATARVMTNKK
Strand	RBNS enrichment (R)
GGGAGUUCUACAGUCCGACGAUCCAAGUAUUUUAAAUAAAUAAUCUUAAAUUUUAAAAUACGUACUGCAGAGUAUGCCAGUAUCUUAUUGUUAAAACUGAAUCAAAUAAAUCUUCGAUUCCUGGUUAUUUGGAUGGAAUUCUCGGGUGCCAA	0.608
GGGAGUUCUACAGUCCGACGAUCUUAUUAGUUUAGUAUUUUAAAAGAUUUAAUUUUCUGAAUGAGGCAUUUGAAUUGUACCAGCAAUGGACUUUUAAAAAAUUGGAUGUAAAACCAUUCAGGGUGAUUUUUCUUGGAAUUCUCGGGUGCCAA	0.693
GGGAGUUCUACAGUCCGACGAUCUUCUCGUUUUCAUGAUUCUUGUGAUUUUCCUGGUCGUUGUACCCAGGGCAUGGCAAUGGCCUCAUCCUUAAAAUGUUAUUUCUACUCUCACCCUGAGAGACCUGGGCAGCUGGAAUUCUCGGGUGCCAA	0.341
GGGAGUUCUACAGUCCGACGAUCCCAUCAUCUCUGCCUUUGAGUGUGGGACUCCAGGCCAGCUCCUUUUCUGUGAAGCCCUUUGCCUGUAGAGCCAGCCUUGGUUGGACCUAUUGCCAGGAAUGUUUCAGCUGUGGAAUUCUCGGGUGCCAA	0.65
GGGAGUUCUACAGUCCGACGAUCUCGGCCGGUCAGGGCCCGCAGCCUCGCCCCAUCCACUCCGGUGCCUCCAUUUAGCUGGCCAAUCAGCCCAGGAGGGGCAGGUUCCCCGGGGCCGGCGCUAGGAUUUGCACUGGAAUUCUCGGGUGCCAA	0.344
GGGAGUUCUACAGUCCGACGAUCAUGCUGGAGGUACCCCCGAGGCACAGGCACUGCCCGUUCCCCUUGCCUGGGCUUCAGGCCUUCUGGCACCUUCUCAGGACACAAGUGGCUGCCCAACCCUGACUCAGAGAUGGAAUUCUCGGGUGCCAA	0.44
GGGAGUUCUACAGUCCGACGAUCGUGAGCCACUGCACCCAGCCCACUUUUUUUUUACUCUGAAGUGAUUCCAGUCAUAUGUGUGUGUAACUGCAUCCUAUGAGAAGAGCACAAAUAUUGCUGUUCCAUGUUCUUGGAAUUCUCGGGUGCCAA	0.797
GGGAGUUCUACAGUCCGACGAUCGGUCAGUUCAAAGUUGCAUUUGGGAUUCUAUGUCUUCCAAAUUGAACCGUCUGUAAUCAGUACAGCCACCCAAAGGGCUAUAGUUCUCAAUUAAAAUGCAAAUGGAUAUCUGGAAUUCUCGGGUGCCAA	0.672

Block 4 — method: RNA Bind-n-Seq; molecule type: RNA; medium: in vitro; concentration: not given; baseline: input RNA pool; reading: higher = stronger binding
Target: RING finger protein unkempt homolog, zinc fingers 1-6, GST-SBP tag (UNK, Homo sapiens, UniProt Q9C0B0, residues 30-357)
Setting: RNA with constant flanks, human and mouse sites, ends assumed
Construct (chain): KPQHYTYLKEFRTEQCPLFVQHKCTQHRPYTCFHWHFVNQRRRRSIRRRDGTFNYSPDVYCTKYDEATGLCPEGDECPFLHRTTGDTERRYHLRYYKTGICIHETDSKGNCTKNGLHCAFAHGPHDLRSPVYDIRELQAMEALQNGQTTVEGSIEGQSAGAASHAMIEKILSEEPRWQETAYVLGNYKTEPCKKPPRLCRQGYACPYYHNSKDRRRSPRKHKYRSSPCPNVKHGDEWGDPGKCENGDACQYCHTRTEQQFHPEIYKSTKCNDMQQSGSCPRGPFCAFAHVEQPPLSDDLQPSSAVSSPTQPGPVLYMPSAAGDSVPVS
Strand	bound/input enrichment [ratio]
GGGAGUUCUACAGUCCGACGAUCGGCUUCCGUCGAGCAUGAGCAAGAUGGCAGCCUCCGAGACGGUUAGGCUACGGCUUCAAUUUGACUACCCGCCGCCGGCCACUCCACACUGCACGGUCUUCUGGCUUCUGGUGGACCUGACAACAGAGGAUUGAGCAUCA	0.0341
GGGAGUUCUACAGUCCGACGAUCGAUGGUGCACAUGCCCCAGAGUUGACCAAAAAAGUCCAGCGACACGUGUCUAGCGGAGCCUUUCCUCCUAGUACUAAUGAACAUCUUAAAGAAGACCUCAGCCUUCGCCUGAAAAAGCUGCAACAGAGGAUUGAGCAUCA	0.431
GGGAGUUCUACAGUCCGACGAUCGGGAGGGAACCGAGUUAUCAAGAUGGGAGGAUUUUUCUUUUCUCUCUGUCUUUAGGAGUAGGGUGGGAUGGGGAGGGAGGCUGGGCAUCAGGGAUCACAUCACUCUUAACGGCUGUUACUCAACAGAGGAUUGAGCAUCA	3.15
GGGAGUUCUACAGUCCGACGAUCUCCUACAAUAAGCAGAUGCGACCUGCAAUUUUAGAUCACUGUUCGGGAAAUAAGUGGACAAACACAUCUCAUCACCCUGAGUAUUUAGUAGGAGAAGAGGCCUUGUAUGUUAAUCCACUGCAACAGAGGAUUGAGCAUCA	0.416
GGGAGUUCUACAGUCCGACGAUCGGCAUCUGGGCAGCGGACGAUGGAAGAACUCUGGGCUUCGGCUGGGACCUUUCGUUCAUGUAGCAGGAACCGGAGAUGGUUGCGUAGAGCAGCCCACGGUUUUGUGGAAAUCUGAAAACUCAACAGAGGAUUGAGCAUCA	0.175
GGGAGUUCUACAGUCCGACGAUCAAGGGCAGGCUGGCCGCGGCCGGUUUGGUCUGGGGACCACGGGCUGGAGCAGGUGGAAAUUUAAAAUUGUUUACAGUCAACACUGUUUCCAGCCAUGGGUUUGUCUCCAUCUGCUCCUGCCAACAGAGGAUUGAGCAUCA	0.0991
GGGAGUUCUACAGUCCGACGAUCCUGGCACUCUAUCAGAUAUAUUAAUUUUUUAAUGUAGAUGUAAUUUUAAAAAUGAAUGGCUACUUUACACGUUUAACUAGGGUUUUACUAUAUAUGUGUACAUAUGUAUAUAUAUAUAUACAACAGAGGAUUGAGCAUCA	8.14
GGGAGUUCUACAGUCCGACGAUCUCUUUAAAAAAAAAAUUACCUUUUCUGACAGUGCUUUCCCUCCCAUAGAUCCACGUUCAAGCUCAAAGAGCAAAGGCUUUGCACGGAGCUCAAACAUCUGAUGAAGAAAGAUUUCUGAGACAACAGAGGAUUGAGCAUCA	0.874

Some of these lines once more (block 3):
Strand	RBNS enrichment (R)
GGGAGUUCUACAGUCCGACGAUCAUGCUGGAGGUACCCCCGAGGCACAGGCACUGCCCGUUCCCCUUGCCUGGGCUUCAGGCCUUCUGGCACCUUCUCAGGACACAAGUGGCUGCCCAACCCUGACUCAGAGAUGGAAUUCUCGGGUGCCAA	0.44
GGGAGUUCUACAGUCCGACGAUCGGUCAGUUCAAAGUUGCAUUUGGGAUUCUAUGUCUUCCAAAUUGAACCGUCUGUAAUCAGUACAGCCACCCAAAGGGCUAUAGUUCUCAAUUAAAAUGCAAAUGGAUAUCUGGAAUUCUCGGGUGCCAA	0.672
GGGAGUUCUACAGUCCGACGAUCUCGGCCGGUCAGGGCCCGCAGCCUCGCCCCAUCCACUCCGGUGCCUCCAUUUAGCUGGCCAAUCAGCCCAGGAGGGGCAGGUUCCCCGGGGCCGGCGCUAGGAUUUGCACUGGAAUUCUCGGGUGCCAA	0.344
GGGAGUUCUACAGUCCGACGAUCCAAGUAUUUUAAAUAAAUAAUCUUAAAUUUUAAAAUACGUACUGCAGAGUAUGCCAGUAUCUUAUUGUUAAAACUGAAUCAAAUAAAUCUUCGAUUCCUGGUUAUUUGGAUGGAAUUCUCGGGUGCCAA	0.608
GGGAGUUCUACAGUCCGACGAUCCCAUCAUCUCUGCCUUUGAGUGUGGGACUCCAGGCCAGCUCCUUUUCUGUGAAGCCCUUUGCCUGUAGAGCCAGCCUUGGUUGGACCUAUUGCCAGGAAUGUUUCAGCUGUGGAAUUCUCGGGUGCCAA	0.65
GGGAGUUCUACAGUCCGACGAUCUUCUCGUUUUCAUGAUUCUUGUGAUUUUCCUGGUCGUUGUACCCAGGGCAUGGCAAUGGCCUCAUCCUUAAAAUGUUAUUUCUACUCUCACCCUGAGAGACCUGGGCAGCUGGAAUUCUCGGGUGCCAA	0.341
